Measurements gathered from unrelated publications.
Every numbered part comes from another study and shows a few of its results, in no order.

Sample 1
Target: RNA binding protein fox-1 homolog 2, RRM domain, GST-SBP tag (RBFOX2, Homo sapiens, UniProt O43251-10, residues 100-194)
Method: RNA Bind-n-Seq
Form: RNA
Matrix: in vitro
Concentration: 365 nM
Setting: natural RNA segment, single round, ends assumed
Reference: no-protein control
Reading: higher = stronger binding
Target sequence (chain): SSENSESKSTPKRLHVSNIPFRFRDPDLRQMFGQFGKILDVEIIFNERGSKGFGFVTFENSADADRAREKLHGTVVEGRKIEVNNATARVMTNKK
Strand	RBNS enrichment (R)
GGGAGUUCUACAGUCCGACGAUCUUUCUUCCAUGUUGCCCAGGCUGGUCUCGAACUCCUGGACUCAAGCAAUCCGCCCACCUUGACUUCCCAAAGUGCUGGGAUUAUGGGCGGGUGUGAGCCAUUGCGCCCAGUGGAAUUCUCGGGUGCCAA	0.364
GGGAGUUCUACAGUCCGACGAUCCUGCCCCAGUCAAAAUCAUCUUGUGCCAAAAAAUUAGAGGUUUGAUUCAUCGUGUCCCUGUUUGAACGUUUAGCACAAAAGUCUUAAUAGCACAACACAAAUUCCAUCCAUGGAAUUCUCGGGUGCCAA	0.708
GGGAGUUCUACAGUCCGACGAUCAUUCUCACUCCAUGACCUGAUUUUUUUUGUUGUUGUUUUUUUGUUUUGUAAUUUUCAAUUCUAUUGUAAAAGAAACUUAAGUCUCCAACUUGCUGUUUCCAAAAAGAAGGUGGAAUUCUCGGGUGCCAA	0.675
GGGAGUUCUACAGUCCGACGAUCUAGGAAACCCACUUUAGUUGAAUGUGUUAAGUGAAAUACUUGUACUUCCCUCCCCCUCUGUCAACUGCUGUGAAUGCUGUAUGGUGUGUGUUCUCCUCUGUUACUGAUCUUGGAAUUCUCGGGUGCCAA	2.5
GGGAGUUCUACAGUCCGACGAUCCCCAUUUCCACCUCCCAGUAAACUGACUUAUAAAUUGCUAUACUUUUCCUGUUUUUUCUGUUGCUGUGGAACUUAAAGAAUGUGAAAGCUGUCAAAGGGUGUUUUCGGAAUGGAAUUCUCGGGUGCCAA	0.71
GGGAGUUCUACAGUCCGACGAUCAAUAAGUUAAUAUUAAGCAAGGUGCCGGUUGUACAAUCUCUGAUCAGUGUCUUUUCAGCACUUUGAGCAUUUACUUGGCUCAUUUAGUCUUCCUUUUGUAGCGCAUGGUUUGGAAUUCUCGGGUGCCAA	16.7
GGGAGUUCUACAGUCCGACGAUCGAAUGGAAAGCAUUCCCUGGUAGCUACUUUAAAUACAGGAGCCCUGUAACUUAAUACCAGUAGUCAACCACUGGAUCUCAGUUUUCAUCAAGUAUUUUAAAUAAAUAAUCUGGAAUUCUCGGGUGCCAA	0.24
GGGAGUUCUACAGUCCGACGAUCGGAGGGGCAACACUGUUAGAUGUGAGGAAAGGAAGUGCCAAAAAUGCCUGGACAGAUGGCUUGUCCCAAGGCCAGGACACACACUUUAAAAUCCAACAUUCACCUAAGCAUGGAAUUCUCGGGUGCCAA	1.23

Sample 2
Target: Replicase polyprotein 1ab, polymerase (rep, Severe acute respiratory syndrome coronavirus 2, UniProt P0DTD1)
Effect on: enzyme activity
Mode: inhibitor
Concentration: 20 µM
Structure (SMILES)	inhibition [%]
COc1cc(C(=O)NS(=O)(=O)c2ccccc2C)ccc1Cc1cn(C)c2ccc(NC(=O)OC3CCCC3)cc12	33
CCOc1cc(N)c(Cl)cc1C(=O)NCC1CN(Cc2ccc(F)cc2)CCO1 (centres unmarked)	-3.6
COc1cc2c(Nc3ccc(Cl)c(Cl)c3F)ncnc2cc1OC[C@@H]1C[C@@H]2CN(C)C[C@@H]2C1	7.23
C[C@]12COC(=O)C[C@@H]1CC[C@@H]1[C@@H]2CC[C@@]2(C)[C@H]1CC[C@]2(C)O	-0.25
CCc1cccc(CC)c1NC(=O)N1Cc2[nH]nc(NC(=O)c3ccc(N4CCN(C)CC4)cc3)c2C1	7.49
CCC(=C(CC)c1ccc(OP(=O)(O)O)cc1)c1ccc(OP(=O)(O)O)cc1	4.66
CCOc1ccc(Cc2cc([C@@H]3O[C@H](SC)[C@@H](O)[C@H](O)[C@H]3O)ccc2Cl)cc1	4.05
NCCC(Oc1ccc(C(F)(F)F)cc1)c1ccccc1 (centres unmarked)	-4.5
CCCCCCCC/C=C\CCCCCCCC(=O)N[C@@H](CO)Cc1ccc(O)cc1	-0.14
O=C(O)Cn1c(C(=O)Nc2nc(-c3ccccc3Cl)cs2)cc2ccccc21	4.22
OC[C@H]1O[C@@H](n2cnc3c2N=CNC[C@H]3O)C[C@@H]1O	-3.77
O=c1n(CC2CO2)c(=O)n(CC2CO2)c(=O)n1CC1CO1 (centres unmarked)	-0.74
O=C(c1ccc(F)cc1)C1CCN(CCCCc2ccccc2)CC1	-9.03
CCC1(c2ccccc2)C(=O)NCNC1=O	11.7
N[C@@H](CSSC[C@H](N)C(=O)O)C(=O)O	-0.27
C[N+]1(CC2CC2)[C@@H]2C[C@@H](OC(=O)[C@H](CO)c3ccccc3)C[C@H]1[C@@H]1O[C@@H]12 (some centres unmarked)	-0.5
CC(C)NCC(O)c1ccc([N+](=O)[O-])cc1 (centres unmarked)	-1.85
Cc1cc(C(C)(C)CC(C)(C)C)ccc1OCCOCC[N+](C)(C)Cc1ccccc1	0.14
CC(C)(C)c1[nH]cnc1/C=c1\[nH]c(=O)/c(=C/c2ccccc2)[nH]c1=O	17.1
C/C(O)=C(\C#N)C(=O)Nc1ccc(C(F)(F)F)cc1	0.74
Oc1ccc2ccccc2c1	0.23
CCCCCCOc1cc2c(cc1N(C)c1ncc(C(=O)O)cn1)C(C)(C)CCC2(C)C	-13.7
S=P(N1CC1)(N1CC1)N1CC1	0.6
CCCCCCCC/C=C\CCCCCCCC(=O)NCCO	1.77
O=C(c1ccc(/C=C/c2n[nH]c3ccccc23)cc1)N1CCNCC1	17.9

Sample 3
Target: Interferon regulatory factor 5, full length, phosphomimetic (IRF5, Homo sapiens, UniProt Q13568-2, residues 1-514, K96S/S451D/S453D/S456D/S462D)
Method: protein-binding microarray
Form: double-stranded DNA, one strand shown
Matrix: in vitro
Concentration: 250 nM
Setting: 60-bp whole probe
With: salmon DNA 0.4 mg/ml
Reference: random background probes
Reading: higher = stronger binding
All sequences stand within: GCCTAGCAC … GTCTTGATTCGCTTGACGCTGCTG
Strand	log fluorescence [z-score]
TTAGGATTCGGTATCGGTTAGTGCTAG	5.98
GACGTTATCGACTTTCGGGACGTGCTA	6.44
GGCGGTATCGGGTTTCGGGACGTGCTA	4.76
GACGATATCAGTTTCGAAACGTGCTAG	7.6
CTGCGGTGAGTGCGTTATCGGTGCTAG	0.448
GACGGTATGGGACTGGGGACGTGCTAG	-0.383
TTAGGACTCCTTTTCCTTTAGTGCTAG	0.201
GACGGTATCGGGACTGGGGAGGTGCTA	1.18

Sample 4
Target: Sal-like protein 4, full length isoform A (SALL4, Homo sapiens, UniProt Q9UJQ4, residues 1-1053)
Chain of UniProt Q9UJQ4 (whole entry, looked up): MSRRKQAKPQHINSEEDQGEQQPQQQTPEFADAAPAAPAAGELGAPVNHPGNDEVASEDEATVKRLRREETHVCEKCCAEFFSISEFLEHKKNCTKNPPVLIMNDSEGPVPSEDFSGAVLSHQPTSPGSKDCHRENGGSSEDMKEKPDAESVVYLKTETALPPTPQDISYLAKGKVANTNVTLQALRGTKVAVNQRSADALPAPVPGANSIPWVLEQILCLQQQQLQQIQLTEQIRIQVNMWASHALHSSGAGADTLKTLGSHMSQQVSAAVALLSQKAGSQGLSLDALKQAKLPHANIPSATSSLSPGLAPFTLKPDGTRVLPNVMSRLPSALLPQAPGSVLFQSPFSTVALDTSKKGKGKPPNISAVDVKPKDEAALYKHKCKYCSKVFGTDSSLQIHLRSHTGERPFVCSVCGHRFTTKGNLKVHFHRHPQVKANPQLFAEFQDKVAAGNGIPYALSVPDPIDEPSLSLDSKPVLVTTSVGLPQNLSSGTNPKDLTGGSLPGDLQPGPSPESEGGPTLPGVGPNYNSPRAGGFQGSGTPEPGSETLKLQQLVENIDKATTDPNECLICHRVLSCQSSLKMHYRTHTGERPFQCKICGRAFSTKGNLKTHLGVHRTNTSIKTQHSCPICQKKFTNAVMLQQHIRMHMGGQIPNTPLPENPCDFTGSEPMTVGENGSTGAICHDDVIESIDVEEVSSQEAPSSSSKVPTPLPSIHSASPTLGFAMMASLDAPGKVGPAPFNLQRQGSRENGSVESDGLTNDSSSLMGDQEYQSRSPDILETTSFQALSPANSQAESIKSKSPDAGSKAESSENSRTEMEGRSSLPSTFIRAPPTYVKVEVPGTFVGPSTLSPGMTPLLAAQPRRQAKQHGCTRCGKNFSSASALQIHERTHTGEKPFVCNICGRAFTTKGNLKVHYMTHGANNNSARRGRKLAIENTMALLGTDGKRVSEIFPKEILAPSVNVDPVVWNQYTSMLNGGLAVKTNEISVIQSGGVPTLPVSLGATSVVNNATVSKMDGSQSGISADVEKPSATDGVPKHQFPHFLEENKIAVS
Method: universal PBM
Form: double-stranded DNA, one strand shown
Matrix: in vitro
Concentration: 600 nM
Setting: 8-mer, flanks averaged, mean of replicates
Reading: higher = stronger binding
Strand	E-score
CGCGGCGC	-0.147
GTGCAAAC	-0.0714
ATTCAGTG	0.117
TACGCTGA	0.143
ATGAATCC	0.171
TCTACCAA	0.153
CCAGATGG	-0.304
GCCACCGA	-0.297

Sample 5
Cell line: HEK-293T/ACE2
Concentration: 10 µM
Time: 16 h
Reference: vehicle
SMILES	viability
C[C@H](CCC(=O)O)[C@H]1CC[C@H]2[C@@H]3[C@H](O)C[C@@H]4C[C@H](O)CC[C@]4(C)[C@H]3CC[C@]12C	102%
NC(=O)CC[C@H](N)C(=O)O	101%
CO/N=C(\C(=O)N[C@@H]1C(=O)N2C(C(=O)O)=C(C[N+]3(C)CCCC3)CS[C@H]12)c1csc(N)n1	101%

Other studies, line by line
Structure (SMILES)	organism	effect on	cells	concentration	endpoint	value
CCCCC/C=C\C/C=C\C/C=C\C/C=C\CCCC(=O)O	SARS-CoV-2	cytopathic effect	Vero E6	10 µM	inhibition	-8.4%

A few entries again (sample 2):
Structure (SMILES)	inhibition [%]
N[C@@H](CSSC[C@H](N)C(=O)O)C(=O)O	-0.27
C[N+]1(CC2CC2)[C@@H]2C[C@@H](OC(=O)[C@H](CO)c3ccccc3)C[C@H]1[C@@H]1O[C@@H]12 (some centres unmarked)	-0.5
CC(C)NCC(O)c1ccc([N+](=O)[O-])cc1 (centres unmarked)	-1.85
Cc1cc(C(C)(C)CC(C)(C)C)ccc1OCCOCC[N+](C)(C)Cc1ccccc1	0.14
